Measured values of several laboratories.
Each line is one published result; not all experiments were run side by side. “And” joins repeats or separate records; there may be more than shown. ± marks the error that the study gave.
RPA1 N-terminal domain: Replication protein A 70 kDa DNA-binding subunit, N-terminal domain (RPA1, Homo sapiens, UniProt P27694)
E3 ubiquitin-protein ligase NEDD4: E3 ubiquitin-protein ligase NEDD4 (Homo sapiens, UniProt P46934)
GLP1R: Glucagon-like peptide 1 receptor (GLP1R, Homo sapiens, UniProt P43220)
Lysophospholipase-like protein 1: Lysophospholipase-like protein 1 (Mus musculus, UniProt Q3UFF7)
MAPK8: Mitogen-activated protein kinase 8 (MAPK8, Homo sapiens, UniProt P45983)
GRM4: Metabotropic glutamate receptor 4 (GRM4, Homo sapiens, UniProt Q14833)

Sequences of proteins named here, by UniProt entry; tags and fusion partners are left off. A change or cut given only in a name is not applied to a line headed by its entry. Residues count along the entry.
UniProt P46934, whole entry, looked up: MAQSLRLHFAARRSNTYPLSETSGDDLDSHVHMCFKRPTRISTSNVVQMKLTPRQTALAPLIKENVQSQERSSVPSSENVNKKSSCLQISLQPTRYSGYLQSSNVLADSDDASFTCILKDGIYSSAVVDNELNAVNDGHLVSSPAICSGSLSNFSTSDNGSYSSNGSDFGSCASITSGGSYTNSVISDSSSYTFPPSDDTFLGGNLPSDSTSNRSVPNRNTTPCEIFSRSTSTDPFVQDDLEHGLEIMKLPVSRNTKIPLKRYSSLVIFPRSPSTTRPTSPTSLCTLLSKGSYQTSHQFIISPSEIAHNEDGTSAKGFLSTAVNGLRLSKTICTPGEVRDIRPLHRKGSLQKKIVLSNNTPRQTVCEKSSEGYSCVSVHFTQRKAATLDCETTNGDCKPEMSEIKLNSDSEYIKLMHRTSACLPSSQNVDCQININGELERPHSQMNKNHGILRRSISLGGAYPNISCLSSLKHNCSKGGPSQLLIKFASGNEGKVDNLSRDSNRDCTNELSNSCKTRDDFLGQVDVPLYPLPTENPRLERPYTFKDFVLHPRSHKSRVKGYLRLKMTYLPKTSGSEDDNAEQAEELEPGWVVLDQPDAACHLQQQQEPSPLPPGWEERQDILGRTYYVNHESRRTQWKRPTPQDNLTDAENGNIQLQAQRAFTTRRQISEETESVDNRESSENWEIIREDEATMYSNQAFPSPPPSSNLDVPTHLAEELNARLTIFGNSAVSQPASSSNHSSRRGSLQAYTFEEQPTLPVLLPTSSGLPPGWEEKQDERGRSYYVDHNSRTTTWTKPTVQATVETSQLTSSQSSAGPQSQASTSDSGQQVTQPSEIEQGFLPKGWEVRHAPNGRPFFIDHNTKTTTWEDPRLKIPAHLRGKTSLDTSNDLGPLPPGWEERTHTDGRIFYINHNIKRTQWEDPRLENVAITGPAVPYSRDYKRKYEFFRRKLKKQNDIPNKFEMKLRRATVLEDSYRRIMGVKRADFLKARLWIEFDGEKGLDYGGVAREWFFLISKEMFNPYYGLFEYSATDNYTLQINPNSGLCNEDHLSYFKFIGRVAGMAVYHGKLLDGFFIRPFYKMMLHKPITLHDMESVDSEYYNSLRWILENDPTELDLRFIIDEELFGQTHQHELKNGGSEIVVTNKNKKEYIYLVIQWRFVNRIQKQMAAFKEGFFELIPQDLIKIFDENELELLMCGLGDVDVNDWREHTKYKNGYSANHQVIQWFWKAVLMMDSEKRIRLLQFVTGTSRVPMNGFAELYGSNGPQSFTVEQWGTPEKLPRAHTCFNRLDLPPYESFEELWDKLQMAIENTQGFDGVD
UniProt P43220, 24-463 limits assumed: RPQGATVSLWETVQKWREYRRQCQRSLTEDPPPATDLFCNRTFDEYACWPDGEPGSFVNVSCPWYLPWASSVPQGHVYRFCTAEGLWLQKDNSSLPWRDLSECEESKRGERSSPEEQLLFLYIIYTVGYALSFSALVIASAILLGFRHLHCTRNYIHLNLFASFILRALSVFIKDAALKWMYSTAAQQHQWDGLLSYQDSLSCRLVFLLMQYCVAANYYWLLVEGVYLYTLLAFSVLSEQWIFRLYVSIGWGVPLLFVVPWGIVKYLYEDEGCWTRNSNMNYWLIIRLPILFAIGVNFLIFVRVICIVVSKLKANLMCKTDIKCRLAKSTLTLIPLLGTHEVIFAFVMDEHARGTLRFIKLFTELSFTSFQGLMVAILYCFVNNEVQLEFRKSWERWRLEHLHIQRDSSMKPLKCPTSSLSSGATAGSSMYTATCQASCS
UniProt Q3UFF7, whole entry: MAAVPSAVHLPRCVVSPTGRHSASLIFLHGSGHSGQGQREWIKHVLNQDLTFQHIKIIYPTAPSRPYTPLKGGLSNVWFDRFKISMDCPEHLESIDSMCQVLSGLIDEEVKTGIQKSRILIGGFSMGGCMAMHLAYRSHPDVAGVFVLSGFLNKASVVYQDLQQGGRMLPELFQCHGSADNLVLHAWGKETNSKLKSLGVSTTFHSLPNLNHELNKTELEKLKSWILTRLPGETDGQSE
UniProt Q14833, 33-912 limits assumed: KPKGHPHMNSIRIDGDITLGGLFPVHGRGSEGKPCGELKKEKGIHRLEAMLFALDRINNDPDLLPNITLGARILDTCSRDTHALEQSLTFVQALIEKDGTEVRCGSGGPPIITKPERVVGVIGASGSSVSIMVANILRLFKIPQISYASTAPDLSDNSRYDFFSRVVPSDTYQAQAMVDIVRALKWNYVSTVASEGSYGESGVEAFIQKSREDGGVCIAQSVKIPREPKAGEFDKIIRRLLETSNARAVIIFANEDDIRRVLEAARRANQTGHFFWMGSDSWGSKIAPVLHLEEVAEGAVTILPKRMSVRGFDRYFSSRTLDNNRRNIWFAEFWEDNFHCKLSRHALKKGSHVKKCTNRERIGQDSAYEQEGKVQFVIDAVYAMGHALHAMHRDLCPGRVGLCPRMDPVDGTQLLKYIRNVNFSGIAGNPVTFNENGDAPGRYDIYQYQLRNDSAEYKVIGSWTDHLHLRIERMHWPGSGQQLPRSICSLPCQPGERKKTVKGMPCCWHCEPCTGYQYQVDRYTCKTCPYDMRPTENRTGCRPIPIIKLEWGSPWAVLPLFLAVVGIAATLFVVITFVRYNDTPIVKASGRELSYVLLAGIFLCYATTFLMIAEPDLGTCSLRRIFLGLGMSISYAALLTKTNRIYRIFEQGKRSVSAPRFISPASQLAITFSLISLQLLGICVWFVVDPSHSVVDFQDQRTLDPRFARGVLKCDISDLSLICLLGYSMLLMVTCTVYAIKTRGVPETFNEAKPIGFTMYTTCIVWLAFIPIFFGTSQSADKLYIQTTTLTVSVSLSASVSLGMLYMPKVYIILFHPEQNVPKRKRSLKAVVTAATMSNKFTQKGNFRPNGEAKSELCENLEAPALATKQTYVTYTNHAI
UniProt O15151, 23-111 limits assumed: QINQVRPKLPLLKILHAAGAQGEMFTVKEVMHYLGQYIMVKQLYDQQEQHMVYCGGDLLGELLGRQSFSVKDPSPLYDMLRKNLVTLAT
UniProt P22455, 467-755 N535K limits assumed: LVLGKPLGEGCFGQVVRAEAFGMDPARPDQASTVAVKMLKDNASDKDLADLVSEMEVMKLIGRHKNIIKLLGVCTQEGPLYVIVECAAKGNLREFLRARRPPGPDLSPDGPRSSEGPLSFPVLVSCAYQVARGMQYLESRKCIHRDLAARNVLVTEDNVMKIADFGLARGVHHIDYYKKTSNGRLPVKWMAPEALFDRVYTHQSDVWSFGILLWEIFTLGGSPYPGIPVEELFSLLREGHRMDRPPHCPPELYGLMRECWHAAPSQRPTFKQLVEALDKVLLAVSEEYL
UniProt P30291, whole entry, looked up, stated change not applied: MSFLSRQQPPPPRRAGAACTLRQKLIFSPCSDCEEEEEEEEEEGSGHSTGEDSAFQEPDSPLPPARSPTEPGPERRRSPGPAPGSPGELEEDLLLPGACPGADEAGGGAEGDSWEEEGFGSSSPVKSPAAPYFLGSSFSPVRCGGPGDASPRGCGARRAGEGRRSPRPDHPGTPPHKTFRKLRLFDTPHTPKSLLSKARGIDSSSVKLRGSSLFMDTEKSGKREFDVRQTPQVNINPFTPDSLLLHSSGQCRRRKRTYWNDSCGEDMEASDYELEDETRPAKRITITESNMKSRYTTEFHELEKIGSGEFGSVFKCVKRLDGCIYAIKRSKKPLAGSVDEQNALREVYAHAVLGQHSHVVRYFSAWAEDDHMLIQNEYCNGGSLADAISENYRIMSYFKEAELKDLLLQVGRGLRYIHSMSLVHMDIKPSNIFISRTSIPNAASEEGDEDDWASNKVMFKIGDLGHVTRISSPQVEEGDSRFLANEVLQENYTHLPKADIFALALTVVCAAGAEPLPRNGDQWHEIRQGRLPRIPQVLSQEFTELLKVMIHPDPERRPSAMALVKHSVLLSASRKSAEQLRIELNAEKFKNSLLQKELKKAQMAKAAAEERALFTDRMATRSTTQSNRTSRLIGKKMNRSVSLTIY
UniProt Q96SW2, whole entry, looked up: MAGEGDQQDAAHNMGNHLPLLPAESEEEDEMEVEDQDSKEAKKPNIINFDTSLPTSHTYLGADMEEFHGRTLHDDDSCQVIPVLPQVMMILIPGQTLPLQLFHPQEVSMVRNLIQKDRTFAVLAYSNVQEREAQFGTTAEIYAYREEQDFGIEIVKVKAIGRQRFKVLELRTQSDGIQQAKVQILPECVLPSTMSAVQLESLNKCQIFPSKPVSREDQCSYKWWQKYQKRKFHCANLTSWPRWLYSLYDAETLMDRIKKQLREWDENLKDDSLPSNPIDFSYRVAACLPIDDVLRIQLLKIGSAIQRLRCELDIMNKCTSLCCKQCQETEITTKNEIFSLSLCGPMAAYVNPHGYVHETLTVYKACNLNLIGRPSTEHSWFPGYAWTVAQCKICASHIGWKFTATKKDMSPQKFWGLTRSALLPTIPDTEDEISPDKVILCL
UniProt Q923Y9, whole entry N287Y: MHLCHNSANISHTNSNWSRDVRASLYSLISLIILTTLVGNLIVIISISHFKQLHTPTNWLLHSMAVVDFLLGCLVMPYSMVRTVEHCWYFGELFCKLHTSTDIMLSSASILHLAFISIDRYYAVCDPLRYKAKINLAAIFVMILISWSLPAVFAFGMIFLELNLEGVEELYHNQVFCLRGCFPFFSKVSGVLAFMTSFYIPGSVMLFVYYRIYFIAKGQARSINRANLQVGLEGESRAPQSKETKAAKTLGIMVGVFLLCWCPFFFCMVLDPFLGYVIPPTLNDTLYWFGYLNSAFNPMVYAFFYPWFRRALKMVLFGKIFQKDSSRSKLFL
UniProt Q9UDY8, 329-566 limits assumed: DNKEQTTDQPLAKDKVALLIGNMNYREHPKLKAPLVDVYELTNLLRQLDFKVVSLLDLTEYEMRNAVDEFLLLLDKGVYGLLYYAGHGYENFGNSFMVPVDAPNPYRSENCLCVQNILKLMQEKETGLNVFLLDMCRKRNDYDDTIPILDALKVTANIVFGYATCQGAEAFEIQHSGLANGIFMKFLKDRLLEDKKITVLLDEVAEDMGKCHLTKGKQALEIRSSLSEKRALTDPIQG
UniProt P05067, 672-713 limits assumed: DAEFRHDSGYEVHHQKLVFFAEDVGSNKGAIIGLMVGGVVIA
UniProt Q8VIJ5, whole entry: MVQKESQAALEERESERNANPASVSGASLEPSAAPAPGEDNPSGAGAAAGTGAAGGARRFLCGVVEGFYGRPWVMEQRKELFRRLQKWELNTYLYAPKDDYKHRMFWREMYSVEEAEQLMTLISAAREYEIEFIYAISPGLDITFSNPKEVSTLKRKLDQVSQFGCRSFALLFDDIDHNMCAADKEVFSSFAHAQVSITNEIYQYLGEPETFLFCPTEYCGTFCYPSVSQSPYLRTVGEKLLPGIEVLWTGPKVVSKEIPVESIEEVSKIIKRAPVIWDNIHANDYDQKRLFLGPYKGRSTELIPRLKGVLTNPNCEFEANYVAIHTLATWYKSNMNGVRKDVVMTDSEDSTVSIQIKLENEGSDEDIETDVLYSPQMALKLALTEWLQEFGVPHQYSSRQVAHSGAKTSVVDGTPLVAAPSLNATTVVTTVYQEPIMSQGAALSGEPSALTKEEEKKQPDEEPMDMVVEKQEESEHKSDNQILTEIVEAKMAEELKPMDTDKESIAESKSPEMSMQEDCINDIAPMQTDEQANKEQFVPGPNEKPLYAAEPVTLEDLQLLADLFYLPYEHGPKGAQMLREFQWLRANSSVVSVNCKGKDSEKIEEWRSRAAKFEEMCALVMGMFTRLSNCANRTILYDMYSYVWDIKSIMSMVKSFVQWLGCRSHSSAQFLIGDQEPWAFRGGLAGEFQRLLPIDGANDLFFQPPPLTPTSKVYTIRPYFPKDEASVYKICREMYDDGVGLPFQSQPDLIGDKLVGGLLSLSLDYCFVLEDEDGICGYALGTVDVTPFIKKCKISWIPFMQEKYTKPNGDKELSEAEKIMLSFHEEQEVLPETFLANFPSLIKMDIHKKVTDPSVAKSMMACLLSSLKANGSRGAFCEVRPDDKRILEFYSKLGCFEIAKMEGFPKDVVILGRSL
UniProt Q06187, whole entry: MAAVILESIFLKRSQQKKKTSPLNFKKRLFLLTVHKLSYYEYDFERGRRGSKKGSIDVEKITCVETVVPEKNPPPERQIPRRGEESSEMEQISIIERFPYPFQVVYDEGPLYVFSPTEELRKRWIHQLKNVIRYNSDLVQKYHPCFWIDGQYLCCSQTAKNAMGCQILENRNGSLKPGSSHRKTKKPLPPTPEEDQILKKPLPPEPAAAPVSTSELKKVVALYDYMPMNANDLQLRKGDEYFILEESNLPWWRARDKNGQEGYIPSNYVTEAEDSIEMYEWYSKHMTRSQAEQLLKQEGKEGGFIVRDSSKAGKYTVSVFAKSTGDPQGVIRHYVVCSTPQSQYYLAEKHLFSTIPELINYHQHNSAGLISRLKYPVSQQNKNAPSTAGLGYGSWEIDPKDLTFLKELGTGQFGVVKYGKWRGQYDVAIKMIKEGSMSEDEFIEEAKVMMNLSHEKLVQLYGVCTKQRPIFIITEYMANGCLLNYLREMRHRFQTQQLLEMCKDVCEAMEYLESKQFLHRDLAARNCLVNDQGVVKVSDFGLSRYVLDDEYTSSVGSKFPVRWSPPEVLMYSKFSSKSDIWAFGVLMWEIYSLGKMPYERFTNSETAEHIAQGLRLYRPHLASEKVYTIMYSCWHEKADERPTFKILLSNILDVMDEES

The ligand efficiency of `Cc1ccc(C(=O)Nc2ccc(F)cc2C(=O)O)cc1S(=O)(=O)Nc1cccc(Cl)c1` is reported as 0.2 (RPA1 N-terminal domain; binding, fluorescence polarisation competition; with: FITC-ATRIP probe).
The binding stoichiometry of `CC(C)Oc1cc(C#N)ccc1C1=N[C@@H](c2cccc(Cl)c2)[C@@H](c2ccc(Cl)cc2)N1C(=O)N1CCNC(=O)C1` is reported as 1.6 ± 0.2 (Protein Mdm4 (MDM4, Homo sapiens, UniProt O15151); isothermal titration calorimetry; concentration not given, 298 K).
With `CC(=O)N1CCN(c2ccc(Nc3ncc4c(n3)N(C)C(=O)N(c3cc(NC(=O)c5cccc(C(F)(F)F)c5)ccc3C)C4)cn2)CC1` the GI50 was 0.036 µM (FGFR4/Transcription factor ETV6 (Homo sapiens, UniProt P22455+P41212, N535K); cell proliferation; Ba/F3 TEL-FGFR4 N535K; 72 h).
`O=C(OC(C(F)(F)F)C(F)(F)F)N1CC[C@H](OC(c2ccc(F)cc2)c2ccc(F)cc2)C1`: activity “inactive” (Fatty-acid amide hydrolase 1 (FAAH, Homo sapiens, UniProt O00519); enzyme activity, inhibitor, fluorescence AAMCA substrate; 1 µM).
`O=C1CCC(N2Cc3cc(-c4nc5ccccn5c4NC45CC6CC(CC(C6)C4)C5)ccc3C2=O)C(=O)N1` (centres unmarked) has a DC50 of 0.017 µM (WEE1/CRBN (Homo sapiens, UniProt P30291+Q96SW2, G322A); degrader, HiBiT; MOLM-14; 5 h).
The efficacy increase of `NCC(c1ccc(O)cc1)c1ccc(Oc2ccccc2)cc1` (centres unmarked) is reported as 12% (Trace amine-associated receptor 1 (Rattus norvegicus, UniProt Q923Y9, N287Y); cAMP production, agonist; mutant; relative to: wild type).
`CC(=O)N[C@@H](CC(C)C)C(=O)N[C@@H](CCCNC(=N)N)C(=O)N[C@@H](CO)C(=O)N[C@@H](CCCNC(=N)N)C(=O)Nc1ccc2c(CC(N)=O)cc(=O)oc2c1` has a kcat/Km of 3500 M⁻¹ s⁻¹ (Mucosa-associated lymphoid tissue lymphoma translocation protein 1 (MALT1, Homo sapiens, UniProt Q9UDY8); substrate, fluorogenic peptide hydrolysis; pH 7.5, catalytic domain 285 or 294 nM).
`CC(C)(C(=O)/C=C/c1ccc(O)c(OC(F)(F)F)c1)C(=O)/C=C/c1ccc(O)c(OC(F)(F)F)c1`: “Aβ band density” 524 ± 277% (Amyloid-beta precursor protein (APP, Homo sapiens, UniProt P05067); SDS-PAGE western blot, refers to: Aβ1-42 species 75-200 kDa; 30 µM, 24 h, 37 °C, with: Aβ 10 µM; relative to: DMSO control).
For `CCOC(=O)/C=C/CNCCCN1c2ccccc2CCc2ccc(Br)cc21`, “ubiquitination TR-FRET signal AUC” read 143000 a.u. and 147000 a.u. and 148000 a.u. (E3 ubiquitin-protein ligase NEDD4; inhibitor, Ub-TR-FRET; 0.01524 µM, 1 h preincubation, HECT domain, with: ATP 2 mM; higher = more ubiquitination).
`Cc1[nH]c2cc(Cl)cc(Cl)c2c1CCn1cc(CCCN)nn1` has an Emax of 90.3% (GLP1R; cAMP accumulation, positive allosteric modulator, HTRF; 0.6 µM, crude reaction product, with: GLP-1(9-36) at EC20; relative to: BETP).
With `CCCCCCCC(=O)OCC(COP(=O)(O)OC1C(O)C(OP(=O)(O)O)C(OP(=O)(O)O)C(OP(=O)(O)O)C1O)OC(=O)CCCCCCC` (centres unmarked) the Hill coefficient was 1.4 (CNGA3/CNGB3 (Homo sapiens, UniProt Q16281+Q9NQW8); increase in cGMP K1/2, modulator, inside-out patch clamp; CNGA3/CNGB3 heteromer).
`Nc1nc(SCc2ccc(Cl)cc2)nn1S(=O)(=O)c1nc2ccccc2s1` has a probe labelling of 1.1 fold (Lysophospholipase-like protein 1; activator, gel-based ABPP FP-rhodamine; relative to: DMSO).
`O=C(O)c1ccc(Nc2c(C(=O)O)ccnc2C(=O)O)cc1` has a remaining activity of 0% (Egl nine homolog 1 (EGLN1, Homo sapiens, UniProt Q9GZT9); inhibitor, HTRF; 400 µM).
`CC(C)n1nnc(-c2ccc(F)c(Nc3ncnn4ccc(CN5CCC(N)CC5)c34)c2)n1`: “potency fold decrease” 100 fold (AP2-associated protein kinase 1 (AAK1, Homo sapiens, UniProt Q2M2I8); enzyme activity, inhibitor; relative to: 18).
The remaining activity of `COC(=O)[C@@]1(C)C=C(C(=O)Nc2cccc(C(=O)NC34CC(Nc5nccc(-c6cccnc6)n5)(C3)C4)c2)C(=O)CC1` is reported as 0.0941 (MAPK8; kinase activity, inhibitor; 0.5487 µM, unit not given, with: 10 mM GSH; relative to: DMSO).
The ligand efficiency of `Cc1ccc(C(=O)Nc2ccc(Br)cc2C(=O)O)cc1S(=O)(=O)Nc1ccc(Br)cc1` is reported as 0.21 (RPA1 N-terminal domain; binding, fluorescence polarisation competition; with: FITC-ATRIP probe).
For `CCOC(=O)/C=C/CNCCCN1c2ccccc2CCc2ccccc21`, “ubiquitination TR-FRET signal AUC” read 109000 a.u. and 108000 a.u. and 104000 a.u. (E3 ubiquitin-protein ligase NEDD4; inhibitor, Ub-TR-FRET; 3.704 µM, 1 h preincubation, HECT domain, with: ATP 2 mM; higher = more ubiquitination).
For `Cc1ccc(F)cc1S(=O)(=O)n1nc(SCc2ccccc2)nc1N`, the probe labelling was 1 fold (Lysophospholipase-like protein 1; activator, gel-based ABPP FP-rhodamine; relative to: DMSO).
`N#Cc1ccc2[nH]cc(/C=C/c3cccc([N+](=O)[O-])c3)c2c1` has an inhibition of 5% (Amyloid-beta precursor protein, Aβ1-40 (APP, Homo sapiens, UniProt P05067); Aβ40 aggregation, thioflavin T fluorescence; 25 µM).
Under “binding free energy”, `CC(=O)N[C@@H](Cc1ccccc1Cl)C(=O)N1CCC[C@]12C=C[C@@H]1CC[C@@H](C(=O)N3CCC[C@@H]4C=C[C@H]5CC[C@@H](C(=O)O)N5C(=O)[C@H]43)N1C2=O` is recorded as -33.1 kJ/mol (Vasodilator-stimulated phosphoprotein, EVH1 domain (VASP, Homo sapiens, UniProt P50552); fluorescence titration; 25 °C).
`Cc1cc(NC(=O)c2cccc(NC(=O)C3=CC(C)(C)CCC3=O)c2)ccc1Nc1nccc(-c2cccnc2)n1` has a remaining activity of 0.873 (MAPK8; kinase activity, inhibitor; 0.02032 µM, unit not given, with: 10 mM GSH; relative to: DMSO).
`CC(C)C[C@H](NC(=O)[C@H](CCC(N)=O)NC(=O)[C@@H](NC(=O)[C@H](CCCCN)NC(=O)[C@H](CC(N)=O)NC(=O)[C@H](CCC(N)=O)NC(=O)[C@H](CC(C)C)NC(=O)[C@@H]1CCCN1C(=O)[C@H](CCC(N)=O)NC(=O)CNC(=O)[C@H](CO)NC(=O)[C@H](CCCNC(=N)N)NC(=O)[C@H](Cc1ccccc1)NC(=O)c1ccccc1N)C(C)C)C(=O)N[C@@H](CCC(N)=O)C(=O)NCCNc1ccc([N+](=O)[O-])cc1[N+](=O)[O-]` has a kcat of 0.122 s⁻¹ (Mitochondrial intermediate peptidase (MIPEP, Homo sapiens, UniProt Q99797); substrate, FRET peptide hydrolysis).
`O=C(O)c1ccccc1Nc1c(C(=O)O)ccnc1C(=O)O` has a remaining activity of 73% (fdhA (Pseudomonas putida, UniProt P46154); inhibitor, spectrophotometric; 200 µM, counterscreen).
For `CC(=O)Nc1ncc(CN2CC[C@H](Oc3cccc(F)n3)C[C@@H]2C)s1` [isotope labelled], the Bmax was 45.9 nM and 46 nM (Protein O-GlcNAcase (Rattus norvegicus, UniProt Q8VIJ5); saturation binding; rat cortex homogenate; radiolabelled compound).
The response of `NC(=O)c1cn(-c2ccc(F)cc2)c2ccc(CN3CCCCCC3)cc2c1=O` is reported as 0.55 ± 0.21% (Metabotropic glutamate receptor 2 (Grm2, Rattus norvegicus, UniProt P31421); calcium mobilization, negative allosteric modulator; 30 µM, with: glutamate 100 µM; relative to: glutamate maximum).
`COc1ccc(C(=O)C2=C(O)C(=O)N(CCN(C)C)C2c2cc(OC)ccc2OC)cc1` (centres unmarked) — result for antagonist activity: “inactive” (fMet-Leu-Phe receptor (FPR1, Homo sapiens, UniProt P21462); fMLF-induced calcium mobilization, antagonist; HL-60 expressing FPR1; concentration not given).
`Nc1nc(SCc2ccc(Cl)cc2)nn1S(=O)(=O)c1cccc2nonc12` gave a probe labelling of 2 fold (Lysophospholipase-like protein 1; activator, gel-based ABPP FP-rhodamine; relative to: DMSO).
With `Nc1ncnc2c1c(-c1ccc(C(=O)Nc3cc(C4CC4)ccn3)cc1)nn2[C@@H]1CCCN(C(=O)C2CC2)C1` the residence time was 4 min and 3.8 min (Tyrosine-protein kinase BTK, non-phosphorylated (BTK, Homo sapiens, UniProt Q06187); TR-FRET binding kinetics; 37 °C, unphosphorylated enzyme).
`CCOC(=O)/C=C/CNCCCCN1c2ccccc2CCc2ccc(Cl)cc21` — result for “ubiquitination TR-FRET signal AUC”: 102000 a.u. and 105000 a.u. and 63000 a.u. and 67300 a.u. and 106000 a.u. and 61200 a.u. (E3 ubiquitin-protein ligase NEDD4; inhibitor, Ub-TR-FRET; 0.4115 µM, 1 h preincubation, HECT domain, with: ATP 2 mM; higher = more ubiquitination).
`Cc1cccc(-c2noc(-c3cn(CC(=O)NCc4ccc5c(c4)OCO5)c4nc(C)ccc4c3=O)n2)c1` has a binding stoichiometry of 1.12 (Catenin beta-1, residues 141-305 (CTNNB1, Homo sapiens, UniProt P35222); isothermal titration calorimetry; concentration not given, 25 °C).
`O=C(Nc1nccs1)C12CC1/C(=N\O)c1ccccc1O2` (centres unmarked) gave a response of 103 ± 8.4% (GRM4; positive allosteric modulator, calcium mobilization; CHO expressing Gqi5; concentration not given, with: glutamate EC20; relative to: (±)-PHCCC).
The Emax of `CCS(=O)(=O)c1nc(-c2ccc(F)cc2)cc(C(F)F)n1` is reported as 118 ± 15% (GLP1R; cAMP accumulation, agonist; HEK293T overexpressing target; no peptide ligand).
With `COc1ccc(NC(=O)CN2CCCN(S(=O)(=O)c3ccc(OC(F)(F)F)cc3)CC2)c(OC)c1` the maximal response was 48.2 ± 4.6% (GRM4; calcium mobilization, positive allosteric modulator; CHO cells with Gqi5; with: glutamate; relative to: PHCCC maximal response).
`CCOC(=O)/C=C/CNCCCN1c2ccccc2CCc2ccc([N+](=O)[O-])cc21`: “ubiquitination TR-FRET signal AUC” 142000 a.u. and 143000 a.u. and 144000 a.u. (E3 ubiquitin-protein ligase NEDD4; inhibitor, Ub-TR-FRET; 0.4115 µM, 1 h preincubation, HECT domain, with: ATP 2 mM; higher = more ubiquitination).
`C/C=C/Cn1c(Cc2cc(OC)c(OC)c(OC)c2)nc2c(N)ncnc21` gave a binding stoichiometry of 1.16 ± 0.11 (Heat shock protein HSP 90-alpha, N-terminal domain (HSP90AA1, Homo sapiens, UniProt P07900, S52A); isothermal titration calorimetry, one-site model; concentration not given, 298 K, N-terminal domain S52A).
